Measurements from different studies.
A part holds a random share of what one study measured.

Set 1
Target: Histone acetyltransferase KAT6A, both winged helices, GST fusion (KAT6A, Homo sapiens, UniProt Q92794, residues 1-181)
Technique: protein binding microarray
Molecule type: double-stranded DNA, one strand shown
Sample: in vitro
Tested at: not given
Notes: 8-mer, flanks averaged, mean of 2 arrays, mostly near background
Baseline: not given
Reading: higher = stronger binding
Target sequence (chain): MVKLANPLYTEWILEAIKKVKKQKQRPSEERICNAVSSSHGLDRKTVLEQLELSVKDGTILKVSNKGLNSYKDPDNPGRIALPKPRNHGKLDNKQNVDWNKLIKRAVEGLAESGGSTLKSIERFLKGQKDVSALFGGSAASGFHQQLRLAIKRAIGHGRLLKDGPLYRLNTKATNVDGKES
Sequence | E-score
CAGCGTCA | 0.0302
ATAAGCCA | -0.225
GAGACTAC | -0.0381
AACAAGCC | -0.00152
TACAAATA | 0.0156
AGAAAGTG | -0.197
CAAGGGTA | -0.137
GAGATGGC | -0.0868
AGGAATGG | -0.257
GAGAGATC | -0.223
ATCAGCAG | 0.0383
ATGCACAT | -0.0595
GTAGGACA | -0.0932
AGCCCCCG | 0.135
ATATCAGC | -0.0789
CACGGTCG | 0.0832
AACGATAG | -0.0281
CGTCGCAG | 0.256
ACATCAGG | -0.196
GTGCGGAA | 0.178

Set 2
Target: RNA binding protein fox-1 homolog 2, RRM domain, GST-SBP tag (RBFOX2, Homo sapiens, UniProt O43251-10, residues 100-194)
Technique: RNA Bind-n-Seq
Molecule type: RNA
Sample: in vitro
Tested at: 365 nM
Notes: natural RNA segment, single round, ends assumed
Baseline: no-protein control
Reading: higher = stronger binding
Construct (chain): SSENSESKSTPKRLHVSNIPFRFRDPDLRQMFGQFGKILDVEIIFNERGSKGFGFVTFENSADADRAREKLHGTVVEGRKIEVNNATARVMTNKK
Sequence | RBNS enrichment (R)
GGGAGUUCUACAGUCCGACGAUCGUCACCUCGGUCAUGCGCCCAGACAACAGACGACGAAAACACCCGUGCCGAUCUCGUGUUCUUUCCUGGAUCACAGACAUUAACAAAAAAGUUAAUUUAUGUGACUUGGCUGGAAUUCUCGGGUGCCAA | 0.206
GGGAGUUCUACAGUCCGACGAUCUUUGGCAUUCUGCCUUGAUUCCUUCUCAUUGAUGUCCAGGUCAUCUGGAGGCCGGGGGUUCUCAGACCUACCAGUUUCCCUUUAGAAGAACAAAUUUCCAGUUCCUCUAGUGGAAUUCUCGGGUGCCAA | 0.295
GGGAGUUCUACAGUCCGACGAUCUGAAAUAUGUUUGAGUAAAAAAGAGUUGCCUGCCACAAUUUAGUGUUGGGGUUCCAGUGGAGCUGAGAAAGUGAACAAUCCAGCUACUUAAAGCAACAACAAAACCUGUUUGGAAUUCUCGGGUGCCAA | 0.351
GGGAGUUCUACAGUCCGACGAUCUGGGCCUUGGGCCAUGCAGUAUCAGCUUGACCUUGCAAGGUCAAGCUGAGGAGACUAAGUUAGCCAUGUGGGCAGUGAAGCAUGCCAAUGUGAUCAAUCCCUAGUAAAAGUGGAAUUCUCGGGUGCCAA | 1.07
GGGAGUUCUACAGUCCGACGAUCGUUAUGUUUCAGAUUUUCAAAUUUAUUUAUACGUGUUAUAAUGAAUGCUUCUAUUUAAAGGGGAAAUAUUUCUACAUGUGCAUAUAGUUUUCCAAGAGUGUACCAUUAACUGGAAUUCUCGGGUGCCAA | 0.917
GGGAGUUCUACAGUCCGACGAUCUUUUUUUUAAGAAAAGAAAUAAAGAUUCAUCCCCUGGCCUCUACUUCAGAUUCGAAGUGGGAGGCAACUCAAUGUGCCUGGGGCUCGCCAUGGGCCCACAGAGUCUCGCUUGGAAUUCUCGGGUGCCAA | 0.198
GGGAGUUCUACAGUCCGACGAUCGGGGGCCUCUCGAGGUCAGCCUCUCCAACCCCUACCUCAGCUCCUGUCUGCACUGAGAAACCUCCCCGGGUGAUGUCUGCAAAGUCUGUGCUGUCCGUGCCCCAGGCUGGUGGAAUUCUCGGGUGCCAA | 0.45
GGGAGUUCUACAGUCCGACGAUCGCUCUCACGAUGCCCACCUAGGCUUUCUGGCCAGUGUACUGAACAGUGCUACAAGCCCUCAGGAGCUCAAGAUAGCAGAGUCCUUCUUUCAAAGCCCAGCUUAGUGAGGAUGGAAUUCUCGGGUGCCAA | 0.22

Set 3
Target: Sal-like protein 4, full length isoform A (SALL4, Homo sapiens, UniProt Q9UJQ4, residues 1-1053)
Chain of UniProt Q9UJQ4 (whole entry, looked up): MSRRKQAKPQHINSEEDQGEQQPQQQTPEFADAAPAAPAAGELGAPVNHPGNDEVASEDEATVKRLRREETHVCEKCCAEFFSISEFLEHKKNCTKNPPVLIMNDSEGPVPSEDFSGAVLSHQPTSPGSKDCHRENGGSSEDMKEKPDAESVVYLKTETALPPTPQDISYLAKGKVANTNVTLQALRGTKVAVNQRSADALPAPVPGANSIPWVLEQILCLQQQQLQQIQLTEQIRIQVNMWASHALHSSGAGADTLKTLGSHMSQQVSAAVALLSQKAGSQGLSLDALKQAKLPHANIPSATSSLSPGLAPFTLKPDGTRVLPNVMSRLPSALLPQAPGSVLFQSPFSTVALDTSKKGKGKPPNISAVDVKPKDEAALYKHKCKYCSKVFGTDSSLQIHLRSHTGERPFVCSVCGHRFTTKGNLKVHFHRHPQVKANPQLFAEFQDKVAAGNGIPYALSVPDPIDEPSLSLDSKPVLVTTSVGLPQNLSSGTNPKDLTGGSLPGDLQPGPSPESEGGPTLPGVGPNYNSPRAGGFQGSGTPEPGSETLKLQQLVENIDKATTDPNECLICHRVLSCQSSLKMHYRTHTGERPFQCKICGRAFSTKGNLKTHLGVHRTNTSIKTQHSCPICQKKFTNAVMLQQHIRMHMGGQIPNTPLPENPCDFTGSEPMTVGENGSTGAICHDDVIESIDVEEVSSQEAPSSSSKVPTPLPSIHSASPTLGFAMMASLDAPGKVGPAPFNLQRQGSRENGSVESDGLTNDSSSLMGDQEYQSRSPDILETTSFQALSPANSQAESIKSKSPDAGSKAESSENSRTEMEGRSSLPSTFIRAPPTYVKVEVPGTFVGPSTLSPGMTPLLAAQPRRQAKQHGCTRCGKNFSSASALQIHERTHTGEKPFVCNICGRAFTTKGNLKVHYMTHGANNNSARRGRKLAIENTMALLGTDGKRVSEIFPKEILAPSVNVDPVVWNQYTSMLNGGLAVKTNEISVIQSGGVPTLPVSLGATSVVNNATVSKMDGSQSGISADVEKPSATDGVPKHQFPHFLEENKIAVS
Technique: universal PBM
Molecule type: double-stranded DNA, one strand shown
Sample: in vitro
Tested at: 600 nM
Notes: 8-mer, flanks averaged, mean of replicates
Reading: higher = stronger binding
Sequence | E-score
AATCACCA | 0.154
TATCACAA | 0.251
AATCAAAA | 0.286
AGGTCGTG | -0.162
CTTAGTTC | -0.0253
CACCCCCA | -0.166
CCAGTCGA | -0.254
AAAAAAAC | 0.227
CCGATAAC | 0.0608
CGACTCAC | -0.104
CATCCGCC | -0.197
CATAACAA | 0.35
GAAGCGCA | -0.262
GTGTGTTA | 0.222
CTTCCAGC | -0.285
CACTACAA | 0.163

Set 4
Target: Interferon regulatory factor 7, full length, phosphomimetic (IRF7, Homo sapiens, UniProt Q92985, residues 1-503, S101K/S471D/S472D/S475D/S476D/S477D/S483D/S484D/S487D)
Chain of UniProt Q92985 (whole entry, unmodified, looked up): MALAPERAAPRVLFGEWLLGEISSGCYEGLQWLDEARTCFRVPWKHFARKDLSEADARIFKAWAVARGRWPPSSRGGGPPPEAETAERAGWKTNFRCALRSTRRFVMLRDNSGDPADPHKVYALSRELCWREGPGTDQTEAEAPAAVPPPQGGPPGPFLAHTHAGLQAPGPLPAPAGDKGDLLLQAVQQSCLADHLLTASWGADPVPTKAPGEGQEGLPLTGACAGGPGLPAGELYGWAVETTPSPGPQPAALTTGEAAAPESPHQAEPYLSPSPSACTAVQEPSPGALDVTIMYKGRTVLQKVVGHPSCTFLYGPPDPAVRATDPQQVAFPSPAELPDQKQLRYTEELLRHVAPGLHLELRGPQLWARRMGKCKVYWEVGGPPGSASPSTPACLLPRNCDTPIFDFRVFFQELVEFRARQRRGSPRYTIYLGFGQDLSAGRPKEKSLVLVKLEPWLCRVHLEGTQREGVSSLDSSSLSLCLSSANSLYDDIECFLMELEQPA
Technique: protein-binding microarray
Molecule type: double-stranded DNA, one strand shown
Sample: in vitro
Tested at: 250 nM
Notes: 60-bp whole probe
Together with: salmon DNA 0.4 mg/ml
Baseline: random background probes
Reading: higher = stronger binding
Constant ends, left off below: GCCTAGCAC … GTCTTGATTCGCTTGACGCTGCTG
Sequence | log fluorescence [z-score]
TATTGTTTCCTCTTTCACTGGTGCTAG | 3.23
TTAGATTTCGGGTTTCGAATAGTGCTA | 4.76
GACGGTATCAGGTTTCGGGACGTGCTA | 2.33
TTAGGTATCGACACTGGGTTAGTGCTA | -0.0818
GACGGACTGGACTTTCGGGCCGTGCTA | -0.828
CTGATTTTGCTTTCATTTATGTGCTAG | 0.991
TCAGGACTGGGTATCGGTTAGTGCTAG | 0.428
TTGACTCTTTCTGTCAGTTTGTGCTAG | 0.619
TCACCTCTCTGTCCCCCACTGTGCTAG | 0.516
GTCGGACTGCTTCTCCTGACGTGCTAG | 0.194
GACGGTATCGGGAATCGGGACGTGCTA | 0.0442
TCAAGTCTGGGCTACAACTTGGTGCTA | -0.578
CCCCAACTCGCCTTTTTTGTTGTGCTA | -0.135
TCTTTTTCCTAATTGAACCCGTGCTAG | 3.51
AGGACCATCCCTTATAAATAGGTGCTA | 0.191
TTAGGACTGGAGTTTCGGTTAGTGCTA | 6.3
GACGGTTTCGGACTGGGTACGTGCTAG | 4.01
